Published values of several laboratories.
Each numbered part is a random draw from the data of one study; scales do not carry over between parts. Substitutions count along the parent as printed.

Series 1
Target: ABI1, truncated, D143A, DHFR fusion (Arabidopsis thaliana)
Technique: DHFR PCA, deep sequencing
Medium: yeast
Notes: methotrexate growth selection, single substitutions
Added: (+)-ABA 1.4 µM
Reference: wild-type fitted maximum
Direction: higher = stronger binding
Starting sequence: PYL1, truncated, DHFR fusion (Arabidopsis thaliana); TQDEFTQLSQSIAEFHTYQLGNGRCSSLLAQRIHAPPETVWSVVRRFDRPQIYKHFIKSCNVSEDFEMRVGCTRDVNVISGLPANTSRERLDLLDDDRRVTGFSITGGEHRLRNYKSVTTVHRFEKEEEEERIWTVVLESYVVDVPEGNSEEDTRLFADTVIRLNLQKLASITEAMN
Substitution | relative binding score [%]
A35R | -10.3
W134F | 59
R49V | 16.5
V43A | 7.27
R155K | 54.7
T173Q | -3.6
R111H | -1.12
T17Y | -15.3
T119M | 27.9
H55D | 13.5
F66D | 25.5
T106A | 2.86

Series 2
Target: Interferon regulatory factor 3, full length, phosphomimetic (IRF3, Homo sapiens, UniProt Q14653, residues 1-427, S386D/S396D/S398D/S402D/T404D/S405D)
Technique: protein-binding microarray
Molecule type: double-stranded DNA, one strand shown
Medium: in vitro
Tested at: 2540 nM top
Notes: 60-bp whole probe
Added: salmon DNA 0.4 mg/ml
Reference: random background probes
Direction: higher = stronger binding
All sequences stand within: GCCTAGCAC … GTCTTGATTCGCTTGACGCTGCTG
Construct (chain): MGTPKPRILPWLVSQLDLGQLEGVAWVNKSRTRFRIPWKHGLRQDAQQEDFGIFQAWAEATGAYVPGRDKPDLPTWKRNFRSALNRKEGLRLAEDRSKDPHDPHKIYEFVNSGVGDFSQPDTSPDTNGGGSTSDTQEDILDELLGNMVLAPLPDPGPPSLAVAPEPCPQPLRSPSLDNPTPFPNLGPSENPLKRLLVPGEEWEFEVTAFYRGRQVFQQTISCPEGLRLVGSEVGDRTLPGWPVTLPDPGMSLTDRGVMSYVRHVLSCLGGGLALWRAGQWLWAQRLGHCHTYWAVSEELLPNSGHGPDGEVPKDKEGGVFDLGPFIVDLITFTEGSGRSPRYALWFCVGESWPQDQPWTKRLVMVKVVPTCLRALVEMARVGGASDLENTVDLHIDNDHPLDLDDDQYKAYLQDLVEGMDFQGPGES
Sequence | fitted relative affinity
GACGGTATCGCTCTCGGGACGTGCTAG | 2.93 z-score
TCAAACTTTTTTCTGATACTGTGCTAG | 0.466 z-score
GGTCCTCTCTCTATTCAGAGGTGCTAG | 1.78 z-score
TTAGGTTTCGGTATGGGTTAGTGCTAG | 7 z-score
TTAGTTTTCATTATTGTGTCGTGCTAG | 3.27 z-score
GTTTGTCCCTATTTAAGATAGTGCTAG | 2.08 z-score
CTCTTGTTCTCTCTGGCCCTGTGCTAG | 0.522 z-score
GACGGTCTCCTTATCCTGACGTGCTAG | 2.89 z-score
TTATTTAGGATAGAACTATAGTGCTAG | 0.371 z-score
GACGGTTTCCTTCTCCTTACGTGCTAG | 9.91 z-score
GGCGGTTTCGGTCTCGGGACGTGCTAG | 8.48 z-score
GACGATTTCGGTTCCGGGACGTGCTAG | 6.24 z-score
GACGGACTGGGTACCGGGACGTGCTAG | -0.535 z-score
TTAGGACTGGGTCTCAGTTAGTGCTAG | -0.517 z-score
TACGGTATCCTACTGCTGACGTGCTAG | 2.41 z-score
TTAGATCTTAGTTTCGATTAGTGCTAG | 3.84 z-score
GACGAATTGAGTATCGAGACGTGCTAG | 0.0615 z-score
TTAGGACTGGGTATAGGTTAGTGCTAG | -0.723 z-score
TCATTTTTTTAATTGAAACTGTGCTAG | 1.3 z-score
TAAGATCTCAGTTTCGATTAGTGCTAG | 3.84 z-score
TTAGGTTTCGACGCTGGGTTAGTGCTA | 1.1 z-score
TCATACTTCTCTTTTTGACTGTGCTAG | 1.62 z-score
GACGGTTTCGACTTTTGGGACGTGCTA | 3.48 z-score
GACGGACTGGGACTGGGGGCGTGCTAG | -0.53 z-score
GACGGTATCGGGATTCGGGACGTGCTA | 1.81 z-score

Series 3
Target: Probable WRKY transcription factor 11, DNA-binding domain (WRKY11, Arabidopsis thaliana, UniProt Q9SV15, residues 228-325)
Technique: DNA-protein interaction ELISA
Molecule type: double-stranded DNA, one strand shown
Medium: in vitro, bacterial lysate
Tested at: not given
Notes: whole dsDNA probe, crude lysate protein
Reference: highest signal in screen
Direction: higher = stronger binding
Target sequence (chain): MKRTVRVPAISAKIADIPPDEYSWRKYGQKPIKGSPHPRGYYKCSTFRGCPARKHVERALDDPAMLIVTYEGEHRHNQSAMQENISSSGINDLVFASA
Sequence | relative absorbance
AAAAAATTCCTGTCCGCTCTCGCTCCAAAA | 16.7 % of maximum
AAAAAATATGCTACTCCACCTTGATGAAAA | 16.1 % of maximum
AAAAAAAGTTCCAGGTCCGATGCTCAAAAA | 16.7 % of maximum
AAAAAAGTGTGTGGCTCAGGATTCCCAAAA | 14.1 % of maximum
AAAAAACACAGCATTAGGCTATCGGTAAAA | 16.1 % of maximum
AAAAAATGCCCTTTTTATCTTTATGTAAAA | 17.3 % of maximum
AAAAAATCGGTACGCACCCCGGACTCAAAA | 17.3 % of maximum
AAAAAACTACAACCTGCGCGGTGGTCAAAA | 21 % of maximum
AAAAAACTTCTAGTTTATGCTTCCGTAAAA | 17 % of maximum
AAAAAACTGCTTGCCCCTGTCTCCATAAAA | 15.8 % of maximum
AAAAAACTGGCGACTGCCAGTGGTAGAAAA | 10.4 % of maximum
AAAAAATTCTTTTTTCTTCAAGGTCTAAAA | 15.8 % of maximum
AAAAAAAAATTTCGAGCCTCGGCGTAAAAA | 12.4 % of maximum
AAAAAATATGTAGCTGCCGTTACGCTAAAA | 11.2 % of maximum

Series 4
Target: CCNB3, cyclin fold, Cln2 fusion (human)
Technique: yeast growth competition, sequencing
Medium: yeast
Notes: strong parent motif
Reference: not given
Direction: higher = stronger binding
Starting sequence: PKN2 docking peptide (human); VSAVRKLDFSDTM
Substitution | normalised enrichment score
S2M | 1.41
F9P | -0.181
T12F | 1.77
S2P | 1.14
S2T | 1.63
A3H | 0.529
T12G | 1.41
K6A | 0.268
S2A | 1.19
L7K | 0.247
D8T | 0.798
D8W | 0.577
T12N | 1.57
F9W | 0.601
F9T | -0.154
F9A | -0.251
L7E | -0.396
S2R | 1.81
S10T | 1.59

Series 5
Target: Sal-like protein 4, full length isoform A (SALL4, Homo sapiens, UniProt Q9UJQ4, residues 1-1053)
Sequence of UniProt Q9UJQ4 (whole entry, looked up): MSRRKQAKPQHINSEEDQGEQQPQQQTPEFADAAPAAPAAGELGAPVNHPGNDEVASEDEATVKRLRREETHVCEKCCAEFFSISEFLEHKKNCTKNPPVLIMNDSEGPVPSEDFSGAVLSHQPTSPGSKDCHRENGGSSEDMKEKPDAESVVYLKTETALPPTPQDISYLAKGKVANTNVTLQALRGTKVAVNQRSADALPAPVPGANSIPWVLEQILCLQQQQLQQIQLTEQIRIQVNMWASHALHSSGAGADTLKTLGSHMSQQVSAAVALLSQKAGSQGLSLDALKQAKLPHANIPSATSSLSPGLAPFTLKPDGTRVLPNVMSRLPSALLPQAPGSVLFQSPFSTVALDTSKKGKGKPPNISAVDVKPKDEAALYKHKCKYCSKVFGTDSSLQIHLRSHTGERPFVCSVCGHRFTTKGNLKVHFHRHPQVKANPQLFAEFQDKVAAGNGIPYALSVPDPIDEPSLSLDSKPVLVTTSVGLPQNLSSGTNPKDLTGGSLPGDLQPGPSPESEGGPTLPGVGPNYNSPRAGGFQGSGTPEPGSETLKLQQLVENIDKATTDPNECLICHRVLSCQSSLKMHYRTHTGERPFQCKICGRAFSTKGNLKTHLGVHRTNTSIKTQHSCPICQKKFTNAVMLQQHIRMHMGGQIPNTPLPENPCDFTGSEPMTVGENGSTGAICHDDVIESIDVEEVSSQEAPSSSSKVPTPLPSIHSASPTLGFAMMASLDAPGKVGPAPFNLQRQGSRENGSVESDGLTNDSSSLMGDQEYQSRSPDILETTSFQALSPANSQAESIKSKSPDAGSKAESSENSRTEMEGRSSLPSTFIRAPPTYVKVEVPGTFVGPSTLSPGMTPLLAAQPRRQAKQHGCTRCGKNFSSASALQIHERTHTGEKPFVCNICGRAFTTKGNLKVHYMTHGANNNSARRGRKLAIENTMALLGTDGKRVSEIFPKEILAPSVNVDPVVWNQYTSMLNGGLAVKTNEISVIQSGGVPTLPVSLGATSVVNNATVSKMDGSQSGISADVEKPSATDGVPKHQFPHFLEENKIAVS
Technique: universal PBM
Molecule type: double-stranded DNA, one strand shown
Medium: in vitro
Tested at: 600 nM
Notes: 8-mer, flanks averaged, mean of replicates
Direction: higher = stronger binding
Sequence | E-score
CTTTGTTC | 0.054
CCTTAAAG | 0.0195
AGGCTGCC | -0.32
ATAGTAGC | 0.162
CTCCCAAG | -0.08
ATCCGGCG | -0.326
CAACAAAC | -0.127
AACCACCC | -0.316
CATTTCTA | 0.237
CGTTACCC | -0.24
TAGCATGA | 0.132
GAGCGAAA | 0.00208
GCGGACAC | -0.336
CAATCCCG | -0.0778
GTTTCGCA | -0.0233
GCTATCCC | -0.212
GCACGTAC | -0.213
ATTCTATC | 0.224
CGAGGCTA | -0.0945
CCTTGAGC | -0.0869
ACCTGAGC | -0.158
CTAGAACC | -0.183
GGAATCAC | 0.0211
AAGGAGAG | -0.0739
ACTGTAAC | 0.0804
